# Assay results from different studies.
# A part holds a random share of what one study measured. Changes are numbered by the printed parent chain.

# Block 1
# Target: RNA binding protein fox-1 homolog 2, RRM domain, GST-SBP tag (RBFOX2, Homo sapiens, UniProt O43251-10, residues 100-194)
# Method: RNA Bind-n-Seq
# Molecule type: RNA
# Medium: in vitro
# Tested at: 365 nM
# Notes: natural RNA segment, single round, ends assumed
# Reference: no-protein control
# Reading: higher = stronger binding
# All sequences stand within: GGGAGUUCUACAGUCCGACGAUC … UGGAAUUCUCGGGUGCCAA
# Construct (chain): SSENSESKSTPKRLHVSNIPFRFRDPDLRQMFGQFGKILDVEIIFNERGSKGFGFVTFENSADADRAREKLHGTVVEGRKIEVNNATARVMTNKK
Strand,RBNS enrichment (R)
UUGUCCUUACUCUUGACUCCAUCCAGAAAAGAACCAGCAUCUGCAAACGCCAUGGGUGCCGUCAGCGAGCGAAGCCUCUCGUGUCGGCUGAUAAAAGCCAGUGGCAGCUG,0.306
GUUGGAGGCCUGAGGCCUCUUGGAACUCUUGCUAACCUGUUCAGAGCCAGGAAGGAGACUGCACAGUUUUGAAAGCACAGCCCGUCAGGUCCGGCUCUGCGUCUCCCUCU,0.451
CUAAUCUAAGUUAAUUAAUGUGGUAAUGAUGUUAUUAAGUGUGGAAGCAAAUGCAGUAUAUUAAAGGUGAACACCACACUGAAACUCCCAACUCCUGACAGAAUAACCAG,0.521
CUCCAGGAGACUUGGGGAUUUGUGUUUAGCUAUGUGUGGGAAUUUGCAAAUGCUUUGUGCUUUGACUGUCACCACGAAAAGGAAGAAAUUCAUGUCAGUGAAGAAAUGCA,1.36
UUUCCACACACUGACCCUUCAGAGUUGGUUCUUUGUUUAUCAGGCCUCCUGACCCUCCCUGCACUUAGCCCUUCCAAGGGACAUCCAGUGGAGCACUGGCAUCUCGAGCU,0.275
UAAAUGGAAAAAAAAAUAAAACUACAACAAGCCUACCUUUUAUAACUGGGUGUUUAGUGCUAAACAGCCAGAACCACAGAGACAGUAUUGUAUGACCAAAGCAUUUGAUG,0.44
UCGUCAGUGGCCAGCCUCCCCUCAGAGAGUUCCGUUGGUAGAUACGCUGCUCAUGUCCCCUCUCCCUCCAUCUGAGAAGCAGAAGCGGCCAGUGUGCCUCAAGGCCCAGG,0.183
UAGGAUGGAAUCUUGAAACAUAUUCUGACCUCCAAUGAAAAGAUAUGGGCAUACAAGGUGAGUUGUACGUAGAACUAAAUCCUUGAGUGUUUCCCACCUGACUCUACUAU,0.305
GUGCUGUGGUGUGACCAAUGAAAAGCUGCAGUCCAGUUUUGUCCCUGGAACCUGUCCUGCACUCUUCCUGCAGUUAGGUAACUGGGGGCAUAGUCAUUCCAGUGGAGAGU,0.308
GUUACCAGGAGAAAUGUGUGACACCUAUAUUAUAAUGAAAACAAUCUCAUUACUUAUAGUUUAUCUAUAUUAAACAAAUUUAAUUGCAUUUUAAAGCAUUCUUUGAUACU,0.916
CUGCUUUGCCUUGCUGCCUGUGCAAAUGUUGGACAAGCAGACACACUCACACUCGUCCCCAGCUUAGCACAGAGCUGGAGCGCCCAUUUCUGGAAUUUUCCGUUUGGGAA,1.36
CAAGUCAACCAAUGUAGAAAGCUUUGCUUAUGGUAAUAAAAAUGGCUCAUACUUAUAUAGCACUUACUUUGUUGCAAGUACUGCUGUAAAUAAAUGCUUUAUGCAAACCA,0.324

# Block 2
# Target: PABPC1L2, full length, GST fusion (mouse, UniProt A0ABA7IW68)
# Method: RNAcompete
# Molecule type: RNA
# Medium: in vitro
# Tested at: 20 nM
# Notes: 7-mer, probes averaged, single round
# Reference: mean of 7-mers
# Reading: higher = stronger binding
# Residues (chain): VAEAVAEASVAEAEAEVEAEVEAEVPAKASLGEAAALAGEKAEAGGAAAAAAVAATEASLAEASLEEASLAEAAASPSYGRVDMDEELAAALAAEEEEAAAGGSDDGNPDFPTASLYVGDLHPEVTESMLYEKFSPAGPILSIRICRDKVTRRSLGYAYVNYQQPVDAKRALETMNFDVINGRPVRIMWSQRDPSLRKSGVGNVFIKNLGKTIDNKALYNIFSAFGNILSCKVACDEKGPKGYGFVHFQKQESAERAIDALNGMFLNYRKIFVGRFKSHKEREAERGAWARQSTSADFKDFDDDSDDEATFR
Strand,7-mer Z-score
CGCAGUU,-0.264
ACAUGGG,0.37
UCAAUAA,0.379
CUAAGCC,-0.121
GCAGCUC,-0.15
GCUCGUC,-0.496
GUCUGGC,-0.0554
AGAUGGA,-0.132
GAAGCCA,-0.0772
UCCCACA,-0.358
AUGGCAG,0.222
CAACUAC,-0.117
GGUCUUC,-0.322
CUCUGUC,-0.42
CUGCCUC,-0.342
UAAUGCG,-0.126
CGCCACC,-0.217
GCCACUC,-0.32
ACCAAAC,0.481
CCGGCCG,-0.409
AGGUCUC,-0.248
AAGAACG,0.457
CUCACUU,-0.226
AUCUUGA,-0.173
CGAUGAU,-0.139

# Block 3
# Target: RING finger protein unkempt homolog, zinc fingers 1-6, SBP tag (UNK, Homo sapiens, UniProt Q9C0B0, residues 30-357)
# Sequence of UniProt Q9C0B0 (30-357, looked up): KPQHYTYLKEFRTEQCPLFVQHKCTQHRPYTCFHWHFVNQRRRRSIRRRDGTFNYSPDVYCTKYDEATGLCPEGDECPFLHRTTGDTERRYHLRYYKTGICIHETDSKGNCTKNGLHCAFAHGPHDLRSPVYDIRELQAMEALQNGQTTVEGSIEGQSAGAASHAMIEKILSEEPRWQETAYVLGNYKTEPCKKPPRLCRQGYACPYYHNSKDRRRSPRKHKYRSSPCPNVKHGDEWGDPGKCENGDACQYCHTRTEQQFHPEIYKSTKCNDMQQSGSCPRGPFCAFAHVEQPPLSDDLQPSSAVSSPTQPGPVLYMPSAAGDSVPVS
# Method: RNA Bind-n-Seq
# Molecule type: RNA
# Medium: in vitro
# Tested at: 100 nM
# Notes: RNA with constant flanks, vertebrate orthologous sites, ends assumed
# Reference: input RNA pool
# Reading: higher = stronger binding
# All sequences stand within: GGGAGUUCUACAGUCCGACGAUC … CAACAGAGGAUUGAGCAUCA
Strand,bound/input enrichment [ratio]
UUGCUUGUUUUGCAUAAGAGUUUGUAUUAAAGAACUUCAAAGGAAGGAACAGGGAUACUCUAGCAGUGGUCCUCAGGUGCCUGGCCUCCAGUACCCCACUUGGAACCACCCUGUCAGGGU,0.205
UGAUUUUCAAUCUCUUCUCCCUUAUCCUGAUUUUAAAAGCCCUUCUUCUUCUUUUUUUAGGCAUAUGUAGUAACAUGAGCAGAAAGAUUUAAUUUGGGCAACUUUGAUUCUUAAAAAAGA,0.333
AUCUGGACCUUUGGAGCCGAACCAGAGAGCUAGCAAAAGUAAGGCAGACUUGUAAAAUUAUAGCCAUGUACAGCUGCACAACAACAGUCCUACCACUAGCAGCUGCGUUAAAGUAUUUAU,0.466
CUCUCUUAGUGAUAGUAUUCCAUCUGUAGCAGAUUCUCACUCGAGUCAUUUUUCUGAGUUUAGUUGCUCAGAUAUGGAAAGUAUGAAAACUUCCUGCAGCCAUGGUUCCAGCGACUAUCA,0.448
UUUUGUUUUGUUUUGCACAUGACAGUGUGUGUAUUGAUCUGAGGAAGGAGGGGGGUGCUGGUGCAGUUGCCCUCCAGUGCCCCCCACCCUCACUACCCCACCUGGUGUCUUUGCCACGUU,0.337
CUCUAUGGGCCUCGCAGAGUUGAAAUAAUGGAAGAGGAAACUGAACAGUAAUCUUCAUUUUAGUAUUUAUGCUUAGGUGUGAAAUAAAUGUUACUCAUUGAUCAUUUCUGUAAUCCAGAG,0.467
CAAGCUCAUUAAGAAAAGCAUUUUUUAAACUGUAUUUAUUUAUGUUUGUAAACUUGUACAUAGUAACAACCCUGCAAAUGUUCUGUUACUCAAUUUUACAUCUUUUAGGUUCUUUUAGGG,1
AUCCCUCAGUGACAGUAUGCCAUCUGUAGCUGACUCCCACUCUAGUCAUUUUUCUGAAUUUAGUUGUUCUGACCUAGAAAGCAUGAAAACUUCUUGUAGCCAUGGUUCCAGUGAUUAUCA,4.24
UUCAGGCACAACUGACUGGUGCACAGCAUUCCUUACAUAGUUAUCUAGCAAAUACAGAUGUGGUUAAUUUUCAGGAAACAACCAGGCAGUCAUCUUUACCUUGUAGCCCAAUCGGAGAUU,0.91
GUUGUGACCCAUUUAACAUUCACAAAAAGCUUGCAAAGAAAAAUUUGCAUGCUAUCGAUUUAGAUGAUGCAACCUUUCUAAGUGCCAAGUUUGGAAGACAGCUUGUACCUGGUUGGAAGC,0.523
UGGGUUACUCCUAUUAUUAUCAAGUAGCUGGAAUUGUGAAGGUCGGAGUAGUUAGAUCUUUAGCUUUUAUUCCUUAUUUUUUUUUUUGUAUUACUCUCCAUGUGUAUAAAUUAUUGAUCA,6.38

# Block 4
# Target: CCNB2, cyclin fold, Cln2 fusion (human)
# Method: yeast growth competition, sequencing
# Medium: yeast
# Notes: weak parent motif
# Reference: not given
# Reading: higher = stronger binding
# Parent: CDKN1B docking peptide (human); PSACRNLFGPVDH; partner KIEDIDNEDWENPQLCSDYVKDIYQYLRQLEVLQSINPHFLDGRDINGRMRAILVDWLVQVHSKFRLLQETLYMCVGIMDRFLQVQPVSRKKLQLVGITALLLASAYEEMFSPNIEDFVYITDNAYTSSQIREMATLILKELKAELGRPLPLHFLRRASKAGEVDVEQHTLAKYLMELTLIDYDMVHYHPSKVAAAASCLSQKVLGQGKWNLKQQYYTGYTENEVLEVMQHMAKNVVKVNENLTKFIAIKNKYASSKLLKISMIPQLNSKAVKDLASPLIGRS
Change,normalised enrichment score
S2L,0.111
P1T,0.312
H13Y,0.0524
L7W,-0.0141
R5N,-0.179
P10D,0.293
C4G,-0.282
D12S,-0.171
R5I,-0.396
L7S,0.214
A3Y,0.134
P10N,0.121
N6A,-0.015
D12P,-0.113
L7T,-0.124
N6M,0.282
C4F,-0.049
C4K,0.217
C4I,0.451
A3L,0.257
C4E,-0.217
V11S,-0.181
C4D,-0.0824
H13D,-0.423
F8Y,-0.374

# Block 5
# Target: Sal-like protein 4, full length isoform B (SALL4, Homo sapiens, UniProt Q9UJQ4-2, residues 1-616)
# Method: universal PBM
# Molecule type: double-stranded DNA, one strand shown
# Medium: in vitro
# Tested at: not given
# Notes: 8-mer, flanks averaged, mean of replicates
# Reading: higher = stronger binding
# Construct (chain): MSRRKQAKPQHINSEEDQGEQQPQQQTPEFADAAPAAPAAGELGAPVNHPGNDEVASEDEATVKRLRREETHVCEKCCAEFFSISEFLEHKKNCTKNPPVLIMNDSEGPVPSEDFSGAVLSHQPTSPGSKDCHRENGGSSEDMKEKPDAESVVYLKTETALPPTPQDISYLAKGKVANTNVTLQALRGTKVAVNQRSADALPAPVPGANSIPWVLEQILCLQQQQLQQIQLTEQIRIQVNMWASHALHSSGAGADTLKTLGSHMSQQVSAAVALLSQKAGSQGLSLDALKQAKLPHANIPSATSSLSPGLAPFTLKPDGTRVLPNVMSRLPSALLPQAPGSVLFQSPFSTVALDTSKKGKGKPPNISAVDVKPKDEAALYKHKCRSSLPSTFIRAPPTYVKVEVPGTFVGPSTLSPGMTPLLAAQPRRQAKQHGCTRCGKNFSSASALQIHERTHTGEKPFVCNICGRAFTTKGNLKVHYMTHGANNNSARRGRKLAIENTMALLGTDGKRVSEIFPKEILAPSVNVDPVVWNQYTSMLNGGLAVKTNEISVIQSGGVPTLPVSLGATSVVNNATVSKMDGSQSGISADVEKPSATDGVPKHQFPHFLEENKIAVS
Strand,E-score
ACCGCACC,-0.348
ACCAGACT,-0.182
CCCACAAC,-0.139
AGCTATAT,0.331
CGGAATAG,-0.111
CCGTAGTA,-0.035
AATTGAAC,0.138
CGGGCTAC,-0.27
CACTTGAA,0.0737
TGCTTTAA,0.104
CTCTGTAC,0.0839
TGGATAAA,0.27
AATGAGAT,0.283
CCCCCCAA,-0.197
AGCATTAG,0.0737
AAAAATGA,0.405
AAGGTAAC,0.0474
AGGCAAAA,0.124
CAGATGGA,0.0115
AATATTCC,0.369
AATGTCAG,0.0626
AATATCAA,0.338
CAAGCTAA,-0.103
